Results of several laboratories.
Lines come from different studies, so protocols differ. Values joined by “and” are separate records of one study, mostly repeats; a detail may differ. ± gives the spread as reported. Values after ≈ are worked out from the molar mass of the structure shown.

`CC(C)(C)NCC(SS(=O)(=O)O)c1ccccc1` (centres unmarked) — result for “liver weight decrease”: 9% (Schistosoma mansoni; perfusion day 52; infected Swiss Webster mice; 400 mg/kg single dose, 1248 h, dosed day 7 post-infection; reference: vehicle control).
Under “worm burden reduction”, `CC1(C)NC(=O)N(c2ccc(F)c(C(C)(F)F)c2)C1=O` is recorded as 50% (Schistosoma mansoni; juvenile stage, infected mice; oral, 50 mg/kg; reference: untreated infected).
`FC(F)(F)c1cccc(CNc2nc(NC3CCN(Cc4ccccc4)CC3)c3nc[nH]c3n2)c1`: “log2 fold change” 0.077 (Cryptococcus neoformans; RNA-seq, refers to: KCS1 (CNAG_02897) mRNA; 48 µg/mL, 3 h; reference: untreated wild type).
The viral reduction of `CC(=O)OC[C@H]1O[C@@H](Sc2sc(C(=O)c3ccc(Cl)cc3)c(N)c2-c2nc3ccccc3s2)[C@H](OC(C)=O)[C@@H](OC(C)=O)[C@@H]1OC(C)=O` is reported as 10% (hepatitis A virus; plaque reduction; HM 175; non-toxic dose NG, mean over three titres).
`CC1=C(Cn2cc(CN3CCC(=O)CC3)nn2)C(=O)c2ccccc2C1=O` gave a killing of 42.8% (Schistosoma mansoni; adult worms; 25 µM, 48 h).
`Cc1c(CN(C)C(=O)/C=C/c2cnc3c(c2)CC(N)C(=O)N3)oc2ccccc12` (centres unmarked) has an MIC of 32 mg/L (≈ 82 µM) (Acinetobacter baumannii; broth microdilution; AR-0278).
`C=C(NC(=O)c1csc(-c2nc3c(cc2O)-c2nc(cs2)C(=O)NC(C(C)O)C(=O)NC(=C(C)OC)c2nc(cs2)C(=O)NC2c4nc(cs4)C(=O)NC(COC(=O)c4c5c6c(cccc6n4O)COC(=O)C(OC4CC(C)(O)C(N(C)C)C(C)O4)C2OC5)c2nc-3cs2)n1)C(N)=O` (centres unmarked) gave an MIC90 of 0.0156 mg/L (≈ 0.0109 µM) (Staphylococcus aureus; microbial growth; MRSA; clinical isolate).
`Cc1cc(C(=O)Nc2nc3cccc(C)c3n2[C@H]2CCCCN(C(=O)/C=C/CN(C)C)C2)ccn1`: “minimum cidal concentration” 16.7 µM (Trypanosoma brucei; wash-off; 48 h).
For `Cc1[nH]c2ccccc2c1CC(=O)N[C@@H](Cc1ccccc1)C(=O)N(C)c1ccccc1`, the EC50 was 0.43 ± 0.08 µM (HIV-1; viral replication; NL4-3 with subtype C gag/pol).
With `CC(=O)O[C@@H]1[C@@H](OC(C)=O)[C@H](Sc2sc(C(=O)c3ccc(C)cc3)c(N)c2-c2nc3ccccc3s2)OC[C@H]1OC(C)=O` the viral reduction was 20% (hepatitis A virus; plaque reduction; HM 175; non-toxic dose NG, mean over three titres).
The germination rate of `Cc1cccc2c1N(C(=O)n1ccnn1)CC2` is reported as 72% and 75% and 67.4% and 64.5% and 60% and 74.3% (Arabidopsis thaliana; kai2 mutant, seeds; 1 µM, 72 h).
For `Nc1c(C(=O)c2ccc(Cl)cc2)sc(S)c1-c1nc2ccccc2s1`, “viral titre reduction” read 0% (hepatitis A virus; plaque reduction; HM 175; non-toxic concentration).
`CN(Cc1ccc(C2(C(F)(F)F)CCC2)cc1)Cc1cccc2ccccc12` has an inhibition zone of 41 mm (Trichophyton rubrum; microbial growth, disc diffusion; ATCC28188; 0.064 µg/mL, 6 days).
The worm burden of `O=C(Nn1c(-c2cccc(Cl)c2)nc2ccccc2c1=O)c1ccccc1` is reported as 17 ± 10 worms (Schistosoma mansoni; infected mice; intraperitoneal, 50 mg/kg 1 times daily for 3 days, dosed 7 weeks post-infection).
`OC(Cn1cncn1)(Cn1cc(-[c-]2cccc2)nn1)c1ccc(F)cc1F.[Cl-].[Co+3].c1cc[cH-]c1` (racemic) has an inhibition of 22% (Brugia pahangi; motility, Worminator; adult female; 50 µM, 0 d).
`Cc1ccc(N(C)C(=O)[C@H](Cc2ccccc2)NC(=O)Cc2c[nH]c3ccc(O)cc23)cc1` gave an EC50 of 0.081 ± 0.03 µM (HIV-1; viral replication; NL4-3 with subtype C gag/pol).
The IC50 of `CCN(CC)CC#CCNc1ccnc2cc(Cl)ccc12` is reported as 0.0785 µM (Plasmodium falciparum; RF12).

Repeated from above:
For `Cc1[nH]c2ccccc2c1CC(=O)N[C@@H](Cc1ccccc1)C(=O)N(C)c1ccccc1`, the EC50 was 0.43 ± 0.08 µM (HIV-1; viral replication; NL4-3 with subtype C gag/pol).
